Published values collected from several papers.
Parts stem from different laboratories: compare values within a part only.
UniProt Q8IW41, sequence (whole entry, looked up): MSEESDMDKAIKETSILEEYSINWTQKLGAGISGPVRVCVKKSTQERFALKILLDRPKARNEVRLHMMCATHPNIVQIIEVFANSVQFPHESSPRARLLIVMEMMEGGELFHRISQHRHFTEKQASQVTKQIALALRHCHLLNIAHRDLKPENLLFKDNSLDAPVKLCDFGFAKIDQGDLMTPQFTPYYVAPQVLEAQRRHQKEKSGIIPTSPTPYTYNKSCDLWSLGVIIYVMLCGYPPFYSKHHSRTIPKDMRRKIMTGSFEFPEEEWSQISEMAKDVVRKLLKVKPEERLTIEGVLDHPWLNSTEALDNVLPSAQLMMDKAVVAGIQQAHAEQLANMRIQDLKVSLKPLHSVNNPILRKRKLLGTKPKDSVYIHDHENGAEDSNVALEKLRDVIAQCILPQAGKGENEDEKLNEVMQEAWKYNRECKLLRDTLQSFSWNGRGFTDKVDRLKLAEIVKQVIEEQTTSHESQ
UniProt Q9H422, sequence (whole entry, looked up): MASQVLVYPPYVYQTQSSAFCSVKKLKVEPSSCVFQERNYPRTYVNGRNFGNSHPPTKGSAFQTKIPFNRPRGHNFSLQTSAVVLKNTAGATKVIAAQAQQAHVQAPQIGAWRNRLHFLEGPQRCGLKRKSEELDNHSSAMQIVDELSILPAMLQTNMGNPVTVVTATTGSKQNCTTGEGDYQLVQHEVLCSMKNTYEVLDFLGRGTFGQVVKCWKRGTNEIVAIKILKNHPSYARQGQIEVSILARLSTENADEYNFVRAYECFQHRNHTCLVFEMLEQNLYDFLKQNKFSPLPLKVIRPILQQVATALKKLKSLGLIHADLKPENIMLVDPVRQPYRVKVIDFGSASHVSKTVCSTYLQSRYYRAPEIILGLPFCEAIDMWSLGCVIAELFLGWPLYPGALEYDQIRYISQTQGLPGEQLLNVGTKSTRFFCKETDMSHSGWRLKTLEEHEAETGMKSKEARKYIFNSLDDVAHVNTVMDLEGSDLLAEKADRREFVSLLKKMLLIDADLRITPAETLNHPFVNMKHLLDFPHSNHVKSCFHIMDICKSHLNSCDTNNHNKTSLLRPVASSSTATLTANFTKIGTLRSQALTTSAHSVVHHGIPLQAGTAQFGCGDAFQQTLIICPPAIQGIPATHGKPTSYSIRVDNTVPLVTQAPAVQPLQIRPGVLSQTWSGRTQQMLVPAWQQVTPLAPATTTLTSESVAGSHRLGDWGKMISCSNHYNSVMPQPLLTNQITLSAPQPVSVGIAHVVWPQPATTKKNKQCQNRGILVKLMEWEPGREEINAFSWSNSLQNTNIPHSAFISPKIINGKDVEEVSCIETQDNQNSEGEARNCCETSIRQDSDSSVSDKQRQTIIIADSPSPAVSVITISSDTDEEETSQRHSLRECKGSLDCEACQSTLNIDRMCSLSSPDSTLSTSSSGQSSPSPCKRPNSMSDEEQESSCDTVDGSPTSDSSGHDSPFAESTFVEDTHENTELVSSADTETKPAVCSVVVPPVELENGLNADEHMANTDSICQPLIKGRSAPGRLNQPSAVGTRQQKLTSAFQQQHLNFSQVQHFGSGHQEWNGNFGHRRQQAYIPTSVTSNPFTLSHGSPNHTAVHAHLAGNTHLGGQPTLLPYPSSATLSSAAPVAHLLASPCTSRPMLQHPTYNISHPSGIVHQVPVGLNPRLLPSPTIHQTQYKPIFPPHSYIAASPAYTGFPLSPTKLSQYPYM
UniProt Q9HBY8, sequence (whole entry, looked up): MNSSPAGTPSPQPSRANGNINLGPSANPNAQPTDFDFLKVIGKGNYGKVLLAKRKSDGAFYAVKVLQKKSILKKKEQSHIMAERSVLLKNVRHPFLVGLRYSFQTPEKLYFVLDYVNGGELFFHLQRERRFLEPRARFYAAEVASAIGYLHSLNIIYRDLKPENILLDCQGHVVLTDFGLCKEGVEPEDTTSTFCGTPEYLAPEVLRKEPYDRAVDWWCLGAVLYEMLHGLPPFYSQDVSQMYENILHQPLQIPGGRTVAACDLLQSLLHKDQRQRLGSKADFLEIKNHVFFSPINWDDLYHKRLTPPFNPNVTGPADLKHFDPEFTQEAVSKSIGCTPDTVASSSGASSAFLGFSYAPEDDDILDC

Set 1
Target: Eukaryotic initiation factor 4A-I (EIF4A1, Homo sapiens, UniProt P60842, residues 1-406, full length assumed)
UniProt P60842, sequence (whole entry, looked up): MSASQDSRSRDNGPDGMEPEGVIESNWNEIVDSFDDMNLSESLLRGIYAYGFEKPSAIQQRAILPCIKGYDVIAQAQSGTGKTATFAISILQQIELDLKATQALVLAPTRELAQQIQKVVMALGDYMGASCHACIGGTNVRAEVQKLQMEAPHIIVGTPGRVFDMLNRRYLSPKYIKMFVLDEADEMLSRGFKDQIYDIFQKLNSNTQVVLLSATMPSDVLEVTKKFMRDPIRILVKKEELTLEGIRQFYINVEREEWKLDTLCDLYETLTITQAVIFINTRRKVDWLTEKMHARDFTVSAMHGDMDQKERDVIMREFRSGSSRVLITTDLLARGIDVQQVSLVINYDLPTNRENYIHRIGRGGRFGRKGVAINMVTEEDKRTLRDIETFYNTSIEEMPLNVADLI
Method: RNA Bind-n-Seq
Form: RNA
Sample: in vitro
Tested at: 15 pmol
Notes: 4-mer, random 30-nt RNA, single round
Added: 3 µM DMDA-PatA, 2 mM AMP-PNP
Reference: input library
Reading: higher = stronger binding
| Sequence | 4-mer enrichment |
| --- | --- |
| AAGC | 0.654 fold |
| UAUG | 1.31 fold |
| UCGU | 1.18 fold |
| UGCU | 0.862 fold |
| CCCU | 0.482 fold |
| GUUU | 1.31 fold |
| GCCG | 0.647 fold |
| GCAA | 0.799 fold |

Set 2
Compound: CN(C)C(=O)Cn1cc(-c2nc([C@@](C)(c3ccc(-c4cnc(N)nc4)cc3)C3CC3)no2)cn1
Effect on: cell-free assay
Method: competition with immobilised ligand
Tested at: 1 µM
| target | remaining binding [%] |
| --- | --- |
| MAPKAPK5 (Homo sapiens, UniProt Q8IW41) | 94 |
| SGK2 (Homo sapiens, UniProt Q9HBY8) | 83 |
| HIPK3 (Homo sapiens, UniProt Q9H422) | 97 |

Set 3
Target: PABPC1L2, full length, GST fusion (mouse, UniProt A0ABA7IW68)
Method: RNAcompete
Form: RNA
Sample: in vitro
Tested at: 20 nM
Notes: 7-mer, probes averaged, single round
Reference: mean of 7-mers
Reading: higher = stronger binding
Residues (chain): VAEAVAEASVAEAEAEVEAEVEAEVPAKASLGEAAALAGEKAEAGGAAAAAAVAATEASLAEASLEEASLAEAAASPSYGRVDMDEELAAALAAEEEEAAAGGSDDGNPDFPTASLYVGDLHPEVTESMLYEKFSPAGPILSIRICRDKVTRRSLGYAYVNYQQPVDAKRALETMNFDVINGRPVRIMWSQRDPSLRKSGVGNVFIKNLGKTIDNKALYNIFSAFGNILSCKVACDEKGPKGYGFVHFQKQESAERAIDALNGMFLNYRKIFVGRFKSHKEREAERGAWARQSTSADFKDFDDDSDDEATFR
| Sequence | 7-mer Z-score |
| --- | --- |
| AACUAAC | 0.356 |
| ACGUGAA | -0.0101 |
| AAAUGAU | 1.17 |
| CGAGUAU | -0.05 |
| CUAAAAU | 2.04 |
| GAUAUCG | -0.226 |
| UGUCUCU | -0.275 |
| UUAGCGC | -0.182 |

Single results of other studies
| SMILES | test system | endpoint | value |
| --- | --- | --- | --- |
| CCC[C@@H]1NC(=O)CSC[C@@H](C(=O)OCC)N(C)C(=O)[C@H](CC(C)C)NC(=O)[C@H](C)N(C)C(=O)[C@H](CC(C)C)NC(=O)[C@H](C)N(C)C(=O)[C@@H]2CCCN2C(=O)[C@H](CC(C)C)NC(=O)CN(CCC)C1=O | hydrocarbon/water | logD | 1.18 |

Some of these lines once more (set 3):
| Sequence | 7-mer Z-score |
| --- | --- |
| UGUCUCU | -0.275 |
